Experimental data pooled from the literature.
Each line is one published result; not all experiments were run side by side.

Structure (SMILES)	medium	concentration	time	pH	setting	with	intrinsic clearance
CSCc1cn(-c2cccc(C(=O)N3CCC(c4nc(-c5ccccc5)n[nH]4)CC3)c2)nn1	human liver microsomes			pH 7.4		NADPH	410 mL/min/kg
[2H]C1([2H])CC[C@@H](C[C@@H](C#N)NC(=O)[C@@H]2[C@@H]3[C@H](CN2C(=O)[C@@H](NC(=O)C(F)(F)F)C(C)(C)C)C3(C)C)C(=O)N1	human liver microsomes				scaled to liver		35.1 mL/min/kg
CNC(=O)C1CCCN(C(=O)C2CC3CCC2N3C(=O)[C@@H]2C[C@@H](O)CN2C(=O)NCc2cccc(Cl)c2F)C1 (mixture of isomers)	mouse liver microsomes						10.4 µL/min/mg
O=S(=O)(Nc1ccc(OC(F)(F)F)cc1)N1CCCC(C2c3ccc(F)cc3CCc3cc(F)ccc32)C1 (stereo not shown)	liver microsomes	10 µM					237 µL/min/mg
[2H]C1([2H])C[C@@H](C[C@@H](C#N)NC(=O)[C@@H]2[C@@H]3[C@H](CN2C(=O)[C@@H](NC(=O)C(F)(F)F)C(C)(C)C)C3(C)C)C(=O)N1	mouse liver microsomes				scaled to liver		354 mL/min/kg
C/C(=N\OCCN1CCCC1)c1ccc(C(F)(F)F)cc1	human liver microsomes	1 µM	45 min				50.5 mL/min/kg
Cc1ccc2c(c1)nc(NC(=O)c1cccc(C(F)(F)F)c1)n2[C@H]1CC[C@H](N)CC1	mouse liver microsomes				mean value		42.5 µL/min/mg
[2H]C1([2H])CC[C@@H](C[C@@H](C#N)NC(=O)[C@@H]2[C@@H]3[C@H](CN2C(=O)[C@@H](NC(=O)C(F)F)C(C)(C)C)C3(C)C)C(=O)N1	human liver microsomes				scaled to liver		15.3 mL/min/kg
O=S(=O)(Nc1ccc(OC(F)(F)F)cc1)N1CCCC(C2c3ccccc3CCc3ccccc32)C1 (stereo not shown)	liver microsomes	10 µM					421 µL/min/mg
CC(C)(C)C12CC(CN3CCN(C(c4ccccc4)c4ccc(Cl)cc4)CC3)(C1)C2 (stereo not shown)	human liver microsomes						~9 µL/min/mg

Excerpt of the above:
Structure (SMILES)	medium	concentration	time	pH	setting	with	intrinsic clearance
C/C(=N\OCCN1CCCC1)c1ccc(C(F)(F)F)cc1	human liver microsomes	1 µM	45 min				50.5 mL/min/kg
